Results of several laboratories.
Numbered parts are unrelated; each lists some results of a single study.

Block 1
Target: RNA binding protein fox-1 homolog 2, RRM domain, GST-SBP tag (RBFOX2, Homo sapiens, UniProt O43251-10, residues 100-194)
Technique: RNA Bind-n-Seq
Molecule type: RNA
Matrix: in vitro
Tested at: 365 nM
Setting: natural RNA segment, single round, ends assumed
Relative to: no-protein control
Direction: higher = stronger binding
Constant ends, left off below: GGGAGUUCUACAGUCCGACGAUC … UGGAAUUCUCGGGUGCCAA
Residues (chain): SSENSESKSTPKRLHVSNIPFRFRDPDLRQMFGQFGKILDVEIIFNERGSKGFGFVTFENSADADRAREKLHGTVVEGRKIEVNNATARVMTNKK
| Sequence | RBNS enrichment (R) |
| --- | --- |
| CCUUAGACACCAAAUCCUUGCCUCUGGAGUGUAGCCACACACAACACAGAGAGUAACUGAAGCCUAUCUUAAGCAAAGAGAAACCACCCGUCCACUCUGGGGCUGCCCUA | 0.71 |
| UAGCUGAUUGUUCCCACUUGCACCUCUCCACCUUUGGCACUAGAACUCCUGAGACACCACUUCUCAUGCUUCUCCCUCCCUACCAGCGGUCAAGGCUUUGGAGCCACUCU | 0.501 |
| UUAAAUAGUUGAAUCAUUAACAACCUGGUGGGAGGCAAGUCAUUUAAUUGAACCACUAGGAAGUGUAUUUUCUUUUCUUUUUCUGCCAACUUUUUGGUGGCAUUUGUAAA | 0.699 |
| GUUCAAGUAGCAGCUGCUAACCCUUGCACCAGCCCUUGUGGGACUCCCAACACAAGACAAAGCUCAGGAUGCUGGUGAUGCUAGGAAGAUGUCCCUCCCCUCACUGCCCC | 0.272 |
| UGAGGUGAGGUGUCUUCUCUGUCUGCCCCAUUGCACUCAACUGAAUAGAAAUAUUUGGGUUUAGAGCAUCUCAAAAGUGGGUAGAAUGUCCUUUGGGAUUUUGUUGCUCC | 0.611 |
| AGUGUUGCUGCCUUCAGUUUGGUUCUGGCCAUGAGGCCCCUAGUGGGAGCUUUGCCCUUAGGGCUGUCCUCUGACUUGCCCUCAAAGUUCACCAAUUCGGCAACUCCAUG | 0.32 |
| UGCACGCAGUAUCCCACUGUAGAGGAGAGCUCAGAGUGGGGGAGUAGGAGCCCUUGCUUGGGGUACAGGUUUUAUAAAUCUGAGCCUUCAACAGUACCUCUCUUCUAAUG | 0.395 |
| GCCGUUUGAACUUUGAGCAUUUAUCUAAAUUAAAUUGGCCCAGGGUUGGCUGGUGGGUCACCCAGCAGAGGCUUCUCCCCAUAGCACGAGGAUGUGUUGCCUGGGCACGG | 2.32 |
| CUGAAAAAUACAAGGGCUGUUGGUGAGAGCAGACUUGAGGUGAUGAUAGUUGGCCUCUGGUCUACAAAGAUUUCAUAACUCCUUGGAAAGCUUCUUAUAAUCAUUCUUAA | 0.601 |
| UGCUUUUUUAAAAUAUAUAUAUAUUUAUAAGAGAUCCUUUCCCAUUUAUUCUGGGAAGAUGUUUUUCAAACUCAGAGACAAGGACUUUGGUUUUUGUAAGACAAACGAUG | 0.737 |
| CCUGCCAGCACACCGAUGCACACACCGGAAGUGGCGAGCCCAAGCCCUGGGGACAGGUGUAGGGAGAAAAGCAGCCCCAGGCCUCAGACUCGCUUCCCAUCCUGGCAUAG | 1.18 |
| UUCUAUUUUUGUAACCUUCCUAUUUUGUAGCUCUGUUUAGAGAGAUGCUGGUUUUUGCCUGAAGGCCCUGCAGCCUGCCCACAUCAGGUUAAACCCACAGCUUUUGUGUG | 1.05 |

Block 2
Target: Sal-like protein 4, full length isoform A (SALL4, Homo sapiens, UniProt Q9UJQ4, residues 1-1053)
Sequence of UniProt Q9UJQ4 (whole entry, looked up): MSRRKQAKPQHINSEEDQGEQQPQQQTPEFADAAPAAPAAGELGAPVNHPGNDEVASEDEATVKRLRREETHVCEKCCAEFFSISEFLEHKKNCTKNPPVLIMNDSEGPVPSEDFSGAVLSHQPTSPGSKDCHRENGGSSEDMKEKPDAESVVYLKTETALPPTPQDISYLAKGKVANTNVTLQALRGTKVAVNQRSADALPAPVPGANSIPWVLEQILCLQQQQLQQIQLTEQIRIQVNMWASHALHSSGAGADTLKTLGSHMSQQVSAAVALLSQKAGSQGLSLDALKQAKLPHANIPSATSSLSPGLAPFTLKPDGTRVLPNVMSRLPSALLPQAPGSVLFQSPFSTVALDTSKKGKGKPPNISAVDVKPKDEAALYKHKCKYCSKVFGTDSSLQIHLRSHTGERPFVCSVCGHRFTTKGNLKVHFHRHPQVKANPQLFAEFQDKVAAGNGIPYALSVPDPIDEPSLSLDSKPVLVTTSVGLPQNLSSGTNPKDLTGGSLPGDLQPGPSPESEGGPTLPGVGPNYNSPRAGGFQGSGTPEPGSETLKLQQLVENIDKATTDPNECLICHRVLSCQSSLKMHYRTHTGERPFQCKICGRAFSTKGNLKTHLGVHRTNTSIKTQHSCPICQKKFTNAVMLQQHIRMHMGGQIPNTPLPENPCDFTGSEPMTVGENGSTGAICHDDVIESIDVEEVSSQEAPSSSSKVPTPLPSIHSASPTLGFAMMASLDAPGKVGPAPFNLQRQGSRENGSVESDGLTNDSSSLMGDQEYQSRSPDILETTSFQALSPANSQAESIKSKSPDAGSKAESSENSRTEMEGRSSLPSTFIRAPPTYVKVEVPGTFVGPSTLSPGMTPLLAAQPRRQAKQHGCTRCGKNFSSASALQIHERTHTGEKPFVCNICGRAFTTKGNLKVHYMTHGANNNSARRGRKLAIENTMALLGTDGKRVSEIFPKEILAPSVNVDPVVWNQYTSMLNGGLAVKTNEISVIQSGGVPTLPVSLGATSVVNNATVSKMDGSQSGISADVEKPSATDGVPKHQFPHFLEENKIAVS
Technique: universal PBM
Molecule type: double-stranded DNA, one strand shown
Matrix: in vitro
Tested at: 600 nM
Setting: 8-mer, flanks averaged, mean of replicates
Direction: higher = stronger binding
| Sequence | E-score |
| --- | --- |
| ACTTGGAA | 0.0398 |
| CGAGACCG | -0.271 |
| CTAGGCCC | -0.3 |
| ACCAGAAT | 0.0398 |
| GCCTTCCC | -0.221 |
| GGTGTGTA | -0.00801 |
| CATGAAAG | 0.105 |
| ATAATGTC | 0.209 |
| AGCTAACG | -0.137 |
| AACTAGGA | 0.0383 |
| AGGAGCCA | -0.207 |
| CGTTAAGC | -0.115 |
| CCTTAACC | -0.1 |
| AGCGTGGC | -0.214 |
| CCACTGAG | -0.207 |
| TGCTAAAA | 0.101 |
| GCCAGCCA | -0.225 |
| AACATTCC | 0.0553 |
| GCTGTGAC | -0.156 |
| AACGCCTG | -0.149 |
| ATCTGGGG | -0.292 |
| AATTAGCG | 0.00578 |
| AACAAACG | -0.0131 |
| AGAATTTC | 0.0641 |
| CTAACAAC | 0.0866 |

Block 3
Target: RING finger protein unkempt homolog, zinc fingers 1-6, GST-SBP tag (UNK, Homo sapiens, UniProt Q9C0B0, residues 30-357)
Technique: RNA Bind-n-Seq
Molecule type: RNA
Matrix: in vitro
Tested at: not given
Setting: RNA with constant flanks, human and mouse sites, ends assumed
Relative to: input RNA pool
Direction: higher = stronger binding
Constant ends, left off below: GGGAGUUCUACAGUCCGACGAUC … CAACAGAGGAUUGAGCAUCA
Construct (chain): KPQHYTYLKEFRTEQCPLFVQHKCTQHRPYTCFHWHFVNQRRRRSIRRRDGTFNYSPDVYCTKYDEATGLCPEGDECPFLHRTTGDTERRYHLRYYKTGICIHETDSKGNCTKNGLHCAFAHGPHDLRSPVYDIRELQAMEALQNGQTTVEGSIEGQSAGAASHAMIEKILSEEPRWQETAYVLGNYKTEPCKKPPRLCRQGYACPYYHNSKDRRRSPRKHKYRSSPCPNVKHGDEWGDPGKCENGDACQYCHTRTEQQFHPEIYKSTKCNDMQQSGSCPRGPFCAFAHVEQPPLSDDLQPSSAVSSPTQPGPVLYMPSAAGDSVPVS
| Sequence | bound/input enrichment [ratio] |
| --- | --- |
| CUCUUUGAUCAGGCAUAUUUGAUGAGGCCUUCUAUAAUAUUUUUUGAUGAAAUAGAUGGCUUAGCUCCUGUUCGUUCUAGUAGACAAGAUCAGAUCCACAGCUCUAUAGUGUCAACCCUC | 0.349 |
| AGGACACGGCCACGGGAGAGGCGAGGGUAACUGGGAGACUGUGCGGCUCGGCGGGCUGGGCCGUCAGGCUGAGAGCUGCUGCUGGGAGGGCGUGACUGGCGAAGGCUGGAGGUUCGGCUU | 0.126 |
| GGAAGACCGAGCCCUCUUACUUCGAAUUAUGGAAAGCAUUGAAGACUUUGCUCAAGAGCUAGUUGAAUGCAAGUCAGGCAGAGGGAGCCUAUCACAAGAAAAGGAAAUGAUGCAAAUUCU | 1.05 |
| UUGGAUGGCCUAUCAUGUAUCCUCAACUUUCUAAAGACCAUGGACUACGAGACCUCAGAGUCUCGAAUACAUACUUCUCUCAUUGGCUGUAUAAAGGCGUUAAUGAACAACUCUCAAGGC | 0.0943 |
| CUCGAGCUACAUUGUGUGUUUUGACUGUUUUAUUUAAGGGAUUGGAGUGGGUUGUGUUUGUUUUUUUUUUAUCACACGUAGAGUGCCCGUUCCCUGGCAGGCCUAGGUUGCCACUCCUCU | 0.819 |
| GAACAUACAAGAAGCCAGAUGCUAUGGCACAUGUUUGUAACCUCAGGAUCCUACAGGGAGAUUUGAAACAGAGAUAAGAGAAUCCCUAGAAGCUCCCAGGCCAGCUAGCCAGGCAUCGUU | 0.141 |
| AUGGCUCACAAUCCUAAUAUGACUCAUCUGAAGAUUAAGCAGCCAGUGACAGCCCUUCCUCCUCUUUGGGUGAGAUGUGACGGUUCAGAUCCUGAAGGUACCUGUUGGCUAGGAGCUGAG | 0.227 |
| UUUAUUUACGUCUUAUUUAUGGUUGAGGAAUUCCGCAAAGAGCCCGUGGAAAACAUGGAUGACGUCAUCUACUACGUGAAUGGCACUUAUCGUCUGCUGGAGUUUGUUGUGGCCCUCUGU | 0.28 |
| GAAAAGUUAGAACCUUGCUGUUAAUCUCAUCUGCUGUGUGUGAAGAUCAAUCAGUGGUCCCUUAGAUUCUUCCCUGCUAACCAAGGAAACAGGGUCGGCCUUGAUAAAUCAAGGGAGUUG | 0.365 |
| CUUAAUUUUCUUUCUUGUUCGGUACCUACAUUGGAACCAUCAAAAACAAUUAUUUCAGUAAACCGUAGCCAUGAGGGAAAUCGUGCACAUCCAGGCCGGACAGUGUGGCAACCAGAUCGG | 0.24 |
| CUAUUGGUCUUGGAUGAGUUCAAAAUGGAGAAAAGAAUCAGCAGAAUGUUUUAUAUAAUGACUUUCCUCUUCCUAACCUUGUGGGGUCCCUACCUGGUGGCCUGCUAUUGGAGAGUUUUU | 0.269 |

Block 4
Target: Centromere-binding protein 1, full length, His-tagged (CBF1, Saccharomyces cerevisiae, UniProt P17106, residues 1-351)
Sequence of UniProt P17106 (whole entry, looked up): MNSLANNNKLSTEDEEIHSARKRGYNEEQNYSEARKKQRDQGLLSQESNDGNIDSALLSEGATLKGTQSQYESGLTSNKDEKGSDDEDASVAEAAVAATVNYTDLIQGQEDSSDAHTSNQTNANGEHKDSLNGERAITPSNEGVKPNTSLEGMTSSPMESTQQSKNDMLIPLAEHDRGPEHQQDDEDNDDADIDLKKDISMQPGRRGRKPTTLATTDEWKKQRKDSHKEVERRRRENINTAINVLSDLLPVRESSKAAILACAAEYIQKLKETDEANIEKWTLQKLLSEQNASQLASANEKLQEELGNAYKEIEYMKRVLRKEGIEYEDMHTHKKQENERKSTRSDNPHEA
Technique: competition protein-binding microarray
Molecule type: double-stranded DNA, one strand shown
Matrix: in vitro
Tested at: 2 µM
Setting: whole 60-bp probe, lowest competitor level
Added: Pho4 competitor, 0.05 µM
Direction: higher = stronger binding
Constant ends, left off below: … GTCTTGATTCGCTTGACGCTGCTG
| Sequence | fluorescence intensity |
| --- | --- |
| TTAAAAAAAAAAAAGCACGTGCTAAAAAATGTTTTT | 5240 a.u. |
| GTCTTGTCTCATTGTCACGGAACTTTCCCCACTTCA | 112 a.u. |
| TGCGCAACAACTTGTCACGACACTTTATGTCTAGAA | 205 a.u. |
| AAAGCGGTAATTTGTTAAGTGGGTGCAGATATCTAT | 82.6 a.u. |
| CATCCGCACATCGCGCATGTGTGGGTGTATATGCCC | 76.7 a.u. |
| AAAGCGGTAATTTGTCACCGAACTTCACATATCTAT | 81.5 a.u. |
| CTAACGAAGGTTTGTCACCGGACTTACAAGCCAAGT | 82 a.u. |
| CTTTCCCGATCTTGTGCCGTGGGTGTAGCACATTTG | 59.5 a.u. |
| GTCTTGTCTCATTTTCACGTGTAATTCCCCACTTCA | 622 a.u. |
| TTCCTGGTAGTCTCGCATACGTTTGTCAGTGGCATT | 81.5 a.u. |
| AAGACTTAACGATACCACGTGTACAAAGCACTGAAT | 1890 a.u. |
| CCGGCCCGGAATATACGCGTGGTCGCGCTCTTTCGG | 75.3 a.u. |
| TACGTTCTGAGAAAGCACGTGAAGGAAGAGAAAACC | 1330 a.u. |
| CTAACGAAGGTTTGTCACGCTACTTACAAGCCAAGT | 217 a.u. |
| CGGGGTTAAGTTTGGTCAGTGGGTGGCTTGCAGCAG | 82.2 a.u. |
| GAACTACGCTACTACGTCGTGGGTATTCTGGAGAAG | 64.7 a.u. |
| CTTCTGTAAATTTGTTGTGTGGGTGGACGCGCCCCG | 103 a.u. |
| CTAACGAAGGTTTGAGACGTGGGTGACAAGCCAAGT | 65.2 a.u. |
| TATAATCCTGGTCGGAACGTGCAAAATATGAGAACG | 113 a.u. |
| CATACCCAACCTTTTCACGTGGTGTAAGATATTTGT | 1080 a.u. |
| GTCTTGTCTCATTGGATTGTGGGTGTCCCCACTTCA | 99.5 a.u. |
| CGTCCTAGTGATTTTCACGTGGAATCCATGAGGAAG | 566 a.u. |
| TGGACGTCAAGATTCTCCGTGACTCGGGCTCTTTTC | 70.1 a.u. |

Repeated from above (block 2):
| Sequence | E-score |
| --- | --- |
| CCTTAACC | -0.1 |
| CTAACAAC | 0.0866 |
| AATTAGCG | 0.00578 |
| CGAGACCG | -0.271 |
| AGCTAACG | -0.137 |
